# Published values of several laboratories.
# Lines come from different studies, so protocols differ.
# Organism: Acinetobacter baumannii
SMILES,test,system,setting,MIC
CC1(C)S[C@@H]2[C@H](NC(=O)[C@H](N)c3ccc(O)cc3)C(=O)N2[C@H]1C(=O)O,broth microdilution,,"24 h, 37 °C, clinical isolate",> 400 µM
CN(C)c1ccc2nc3ccc(=[N+](C)C)cc-3sc2c1,broth microdilution,"ATCC 19606, susceptible","18 h, 37 °C, dark",> 128 µM
FC(F)(F)Oc1ccc(OCCn2c(CNCC34CC5CC(CC(C5)C3)C4)nc3ccccc32)cc1,,ATCC 17961,,> 128 µg/mL
CN[C@@H]1[C@@H](O[C@H]2O[C@H](CO)[C@@H](N)[C@H](O)[C@H]2O)OC2C[C@@H](N)[C@@H](O[C@H]3[C@H](O)[C@@H](O)[C@H](N)C[C@@H]3N)OC2[C@@H]1O (stereo partly drawn),broth microdilution,NCTC 13424,"20 h, 5% CO2",8 µg/mL
c1ccc(OCCn2c(CNCC34CC5CC(CC(C5)C3)C4)nc3ccccc32)cc1,,ATCC 17961,,> 128 µg/mL
CC1(C)S[C@@H]2[C@H](NC(=O)[C@H](N)c3ccccc3)C(=O)N2[C@H]1C(=O)O,broth microdilution,"ATCC 19606, susceptible","18 h, 37 °C, dark",> 128 µM
CN(C)[C@@H]1C(O)=C(C(N)=O)C(=O)[C@@]2(O)C(O)=C3C(=O)c4c(O)cccc4[C@@](C)(O)[C@H]3C[C@@H]12,broth microdilution,NCTC 13424,"20 h, ambient air",512 µg/mL
C[C@H]1COc2c(N3CCN(C)CC3)c(F)cc3c(=O)c(C(=O)O)cn1c23,broth microdilution,ATCC 17978,,0.16 µM
COc1ccc2ccc(O)c(/C=N/[C@H]3CCCC[C@H]3/N=C/c3ccc(OCCN4CCCCC4)cc3O)c2c1,"bacterial growth, broth microdilution",carbapenem-resistant clinical isolate,,> 40 µM
C[C@H]1COc2c(N3CCN(C)CC3)c(F)cc3c(=O)c(C(=O)O)cn1c23,broth microdilution,NCTC 13424,"20 h, 5% CO2",32 µg/mL
N#Cc1ccc2[nH]c(CNCC34CC5CC(CC(C5)C3)C4)nc2c1,,ATCC 17961,,> 128 µg/mL
CC[C@H](C)CCCCC(=O)N[C@@H](CCN)C(=O)N[C@H](C(=O)N[C@@H](CCN)C(=O)N[C@H]1CCNC(=O)[C@H]([C@@H](C)O)NC(=O)[C@H](CCN)NC(=O)[C@H](CCN)NC(=O)[C@H](CC(C)C)NC(=O)[C@@H](CC(C)C)NC(=O)[C@H](CCN)NC1=O)[C@@H](C)O,broth microdilution,"ATCC 17978, cation-adjusted Mueller-Hinton broth","18 to 20 h, 37 °C, 0.002% polysorbate 80",0.25 µg/mL
C[C@@H](O)[C@H]1C(=O)N2C(C(=O)O)=C(S[C@@H]3CN[C@H](C(=O)N(C)C)C3)[C@H](C)[C@H]12,,clinical isolate 1B5,,96 µg/mL
CC(NCCC(c1ccccc1)c1ccccc1)c1ccccc1 (stereo not drawn),,efflux-deficient,,8 µg/mL
Oc1c(Br)cc(Br)c2nc3ccccc3nc12,,1794,,> 100 µM
C[C@H]1COc2c(N3CCN(C)CC3)c(F)cc3c(=O)c(C(=O)O)cn1c23,agar dilution,16-16,,16 µg/mL
C/C(=C\C(=O)OCCCCCCCCC(=O)O)C[C@@H]1OC[C@H](C[C@@H]2O[C@H]2[C@@H](C)[C@H](C)O)[C@@H](O)[C@H]1O,broth microdilution,ATCC 17978,,320 µM
CC[C@H](C)[C@H](NC(=O)[C@H](CCCCN)NC(=O)[C@H](CCC(=O)O)NC(=O)[C@H](CCCCN)NC(=O)[C@H](CO)NC(=O)[C@H](CCCCN)NC(=O)[C@H](CCCNC(=N)N)NC(=O)[C@H](Cc1ccccc1)NC(=O)[C@H](Cc1ccccc1)NC(=O)[C@H](CC(=O)O)NC(=O)CNC(=O)[C@H](CC(C)C)NC(=O)[C@@H](N)CC(C)C)C(=O)NCC(=O)N[C@@H](CCCCN)C(=O)N[C@@H](CCC(=O)O)C(=O)N[C@@H](Cc1ccccc1)C(=O)N[C@@H](CCCCN)C(=O)N[C@@H](CCCNC(=N)N)C(=O)N[C@H](C(=O)N[C@H](C(=O)N[C@@H](CCC(N)=O)C(=O)N[C@@H](CCCNC(=N)N)C(=O)N[C@H](C(=O)N[C@@H](CCCCN)C(=O)N[C@@H](CC(=O)O)C(=O)N[C@@H](Cc1ccccc1)C(=O)N[C@@H](CC(C)C)C(=O)N[C@@H](CCCNC(=N)N)C(=O)N[C@@H](CC(N)=O)C(=O)N[C@@H](CC(C)C)C(=O)N[C@H](C(=O)N1CCC[C@H]1C(=O)N[C@@H](CCCNC(=N)N)C(=O)N[C@H](C(=O)N[C@@H](CCC(=O)O)C(=O)N[C@@H](CO)C(=O)O)[C@@H](C)O)C(C)C)[C@@H](C)CC)C(C)C)[C@@H](C)CC,,ATCC 19606,highest concentration 50 µM,8.35 µM
O=C(N[C@H](CO)[C@H](O)c1ccc([N+](=O)[O-])cc1)C(Cl)Cl,broth microdilution,NCTC 13424,"20 h, ambient air",128 µg/mL
CC(C)C[C@@H]1NC(=O)[C@@H](Cc2ccccc2)NC(=O)[C@H](CCN)NC(=O)[C@@H](NC(=O)[C@H](CCN)NC(=O)[C@@H](N)[C@@H](C)O)CCNC(=O)[C@H]([C@@H](C)O)NC(=O)[C@H](CCN)NC(=O)[C@H](CCN)NC1=O,,ATCC 17978,"in combination, checkerboard, together with: rifampicin",3.13 µg/mL
CC[C@H]1OC(=O)[C@H](C)[C@@H](O[C@H]2C[C@@](C)(OC)[C@@H](O)[C@H](C)O2)[C@H](C)[C@@H](O[C@@H]2O[C@H](C)C[C@H](N(C)C)[C@H]2O)[C@](C)(OC)C[C@@H](C)C(=O)[C@H](C)[C@@H](O)[C@]1(C)O,broth microdilution,ATCC 17978,,10 µM
C[C@@H](O)[C@H]1C(=O)N2C(C(=O)O)=C(S[C@@H]3CN[C@H](C(=O)N(C)C)C3)[C@H](C)[C@H]12,broth microdilution,BNCC 194496,,0.25 µg/mL
CCO/N=C(\C(=O)N[C@@H]1C(=O)N2C(C(=O)[O-])=C(Sc3nc(-c4cc[n+](C)cc4)cs3)CS[C@H]12)c1nsc(NP(=O)(O)O)n1,broth microdilution,,"24 h, 37 °C, clinical isolate",> 400 µM
NCC[C@H](O)C(=O)N[C@@H]1C[C@H](N)[C@@H](O[C@H]2O[C@H](CN)[C@@H](O)[C@H](O)[C@H]2O)[C@H](O)[C@H]1O[C@H]1O[C@H](CO)[C@@H](O)[C@H](N)[C@H]1O,broth microdilution,NCTC 13424,"20 h, 5% CO2",> 512 µg/mL
NC[C@H]1O[C@H](O[C@H]2[C@H](O)[C@@H](O[C@H]3O[C@H](CO)[C@@H](O)[C@H](N)[C@H]3O)[C@H](N)C[C@@H]2N)[C@H](N)C[C@@H]1O,broth microdilution,ATCC 17978,,1.3 µM
NC[C@H]1O[C@H](O[C@H]2[C@H](O)[C@@H](O[C@H]3O[C@H](CO)[C@@H](O)[C@H](N)[C@H]3O)[C@H](N)C[C@@H]2N)[C@H](O)[C@@H](O)[C@@H]1O,broth microdilution,22933,,4 µM
Cc1cc(NS(=O)(=O)c2ccc(N)cc2)no1,broth microdilution,NCTC 13424,"20 h, ambient air",> 512 µg/mL
Cc1c(CN(C)C(=O)/C=C/c2cnc3c(c2)CC(CCN)C(=O)N3)oc2ccccc12.Cl (stereo not drawn),broth microdilution,KB304,,64 µg/mL
CC[C@H]1OC(=O)[C@H](C)[C@@H](O[C@H]2C[C@@](C)(OC)[C@@H](O)[C@H](C)O2)[C@H](C)[C@@H](O[C@@H]2O[C@H](C)C[C@H](N(C)C)[C@H]2O)[C@](C)(O)C[C@@H](C)CN(C)[C@H](C)[C@@H](O)[C@]1(C)O,broth microdilution,BNCC 194496,,1 µg/mL
C[C@@H](O)[C@H]1C(=O)N2C(C(=O)O)=C(S[C@@H]3CN[C@H](C(=O)N(C)C)C3)[C@H](C)[C@H]12,,HR1 clinical isolate,,8 µg/mL
O=[N+]([O-])c1ccc(O)c2ncccc12,,1794,,9.38 µM
Cc1c(CN(C)C(=O)/C=C/c2cnc3c(c2)CCC(=O)N3)oc2ccccc12,broth microdilution,AR-0311,,8 µg/mL
C[C@@H](O)[C@H]1C(=O)N2C(C(=O)O)=C(SCCN=CN)C[C@H]12,broth microdilution,BNCC 194496,,0.5 µg/mL
CO/N=C(\C(=O)N[C@@H]1C(=O)N2C(C(=O)O)=C(COC(C)=O)CS[C@H]12)c1csc(N)n1,broth microdilution,NCTC 13424,"20 h, 5% CO2",512 µg/mL
CO[C@H]1/C=C/O[C@@]2(C)Oc3c(C)c(O)c4c(O)c(c(/C=N/N5CCN(C)CC5)c(O)c4c3C2=O)NC(=O)/C(C)=C\C=C\[C@H](C)[C@H](O)[C@@H](C)[C@@H](O)[C@@H](C)[C@H](OC(C)=O)[C@@H]1C,broth microdilution,ATCC 17978,,5 µM
C[C@H](N)C(=O)N[C@H](C(=O)N[C@@H](CS)C(=O)N[C@@H](Cc1ccc(O)cc1)C(=O)N[C@@H](CS)C(=O)N[C@@H](CCCNC(=N)N)C(=O)N[C@H](C(=O)NCC(=O)N[C@@H](CCCNC(=N)N)C(=O)O)[C@@H](C)O)[C@@H](C)O,broth turbidity,,,25 µM
CNC(C)C1CCC(N)C(OC2C(N)CC(N)C(OC3OCC(C)(O)C(NC)C3O)C2O)O1 (stereo not drawn),broth microdilution,ATCC 17978,,0.63 µM
Cc1c(CN(C)C(=O)/C=C/c2cnc3c(c2)CC(NC(=O)OC(C)(C)C)C(=O)N3)oc2ccccc12 (stereo not drawn),broth microdilution,W41979,,> 32 µg/mL
Cc1cc(Nc2ccc(S(F)(F)(F)(F)F)cc2)n2ccnc2n1,,HR2 clinical isolate,,0.27 µg/mL

# Repeated from above:
SMILES,test,system,setting,MIC
CO/N=C(\C(=O)N[C@@H]1C(=O)N2C(C(=O)O)=C(COC(C)=O)CS[C@H]12)c1csc(N)n1,broth microdilution,NCTC 13424,"20 h, 5% CO2",512 µg/mL
CO[C@H]1/C=C/O[C@@]2(C)Oc3c(C)c(O)c4c(O)c(c(/C=N/N5CCN(C)CC5)c(O)c4c3C2=O)NC(=O)/C(C)=C\C=C\[C@H](C)[C@H](O)[C@@H](C)[C@@H](O)[C@@H](C)[C@H](OC(C)=O)[C@@H]1C,broth microdilution,ATCC 17978,,5 µM
C[C@H](N)C(=O)N[C@H](C(=O)N[C@@H](CS)C(=O)N[C@@H](Cc1ccc(O)cc1)C(=O)N[C@@H](CS)C(=O)N[C@@H](CCCNC(=N)N)C(=O)N[C@H](C(=O)NCC(=O)N[C@@H](CCCNC(=N)N)C(=O)O)[C@@H](C)O)[C@@H](C)O,broth turbidity,,,25 µM
CNC(C)C1CCC(N)C(OC2C(N)CC(N)C(OC3OCC(C)(O)C(NC)C3O)C2O)O1 (stereo not drawn),broth microdilution,ATCC 17978,,0.63 µM
Cc1c(CN(C)C(=O)/C=C/c2cnc3c(c2)CC(NC(=O)OC(C)(C)C)C(=O)N3)oc2ccccc12 (stereo not drawn),broth microdilution,W41979,,> 32 µg/mL
Cc1cc(Nc2ccc(S(F)(F)(F)(F)F)cc2)n2ccnc2n1,,HR2 clinical isolate,,0.27 µg/mL
